{"data": "Assay results of several laboratories", "note": "Parts stem from different laboratories: compare values within a part only. Positions count from the first letter of the parent shown."}
{"data": "Block 1", "target": "Ras GTPase-activating protein-binding protein 1, RRM domain (G3BP1, Homo sapiens, UniProt Q13283)", "technique": "RNA Bind-n-Seq", "form": "RNA", "medium": "in vitro", "tested at": "1 µM", "notes": "whole 134-nt RNA, ends assumed", "together with": "150 mM KCl", "relative to": "input library", "direction": "higher = stronger binding", "shared flanks, not repeated": "GGGAGUUCUACAGUCCGACGAUC … UGGAAUUCUCGGGUGUCAAGG", "UniProt Q13283, sequence (whole entry, looked up)": "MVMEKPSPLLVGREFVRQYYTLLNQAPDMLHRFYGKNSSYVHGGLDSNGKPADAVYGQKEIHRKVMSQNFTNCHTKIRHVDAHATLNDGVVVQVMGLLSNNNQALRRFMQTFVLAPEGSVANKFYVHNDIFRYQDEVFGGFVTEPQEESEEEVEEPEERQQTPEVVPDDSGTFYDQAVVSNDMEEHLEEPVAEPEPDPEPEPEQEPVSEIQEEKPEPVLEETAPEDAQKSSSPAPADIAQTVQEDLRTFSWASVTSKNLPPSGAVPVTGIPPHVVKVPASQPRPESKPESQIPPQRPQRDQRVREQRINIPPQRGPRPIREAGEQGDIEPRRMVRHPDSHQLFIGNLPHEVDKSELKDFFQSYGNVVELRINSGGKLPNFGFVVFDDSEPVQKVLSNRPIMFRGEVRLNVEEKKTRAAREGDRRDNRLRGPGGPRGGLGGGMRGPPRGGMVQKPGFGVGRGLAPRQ"}
{"Strand": "UCAAGUCCUGUGCUACACAUCGUAUGUACCGAAUCGGGGAAAGGAAAGGAAAGGAAAGUAUUAUGUUACGCCGUUCGGAUCUGCACUUCC", "log2 enrichment": -0.243}
{"Strand": "CCUGUGCUACACAUCGUAUGUACCGAAUCGGGAAAAAGGGUUUUUUUGGGUUUUUUUGGGAAAGUAUUAUGUUACGCCGUUCGGAUCUGC", "log2 enrichment": -0.322}
{"Strand": "UCAAGUCCUGUGCUACACAUCGUAUGUACCGAAUCGGUUUUUUUGGAAAGGUGGAAAGUAUUAUGUUACGCCGUUCGGAUCUGCACUUCC", "log2 enrichment": -0.164}
{"Strand": "CUCAAGUCCUGUGCUACACAUCGUAUGUACCGAAUCGGCCGGCCGGGGCCGGGAAAGUAUUAUGUUACGCCGUUCGGAUCUGCACUUCCA", "log2 enrichment": -0.371}
{"Strand": "UGGGAGGUGGAUUUUGUUUAUUUUUUUAGCUCAUUUCCAGGGGUGGGAAUUUUUUUUUAAUAUGUGCCAUGAAUAAAGUUGUUUUUGAAA", "log2 enrichment": 2}
{"Strand": "AAGUCCUGUGCUACACAUCGUAUGUACCGAAUCGGAGGUUUUUUUGGUUUUUUUGGAAAGUAUUAUGUUACGCCGUUCGGAUCUGCACUU", "log2 enrichment": -0.404}
{"Strand": "CCUGUGCUACACAUCGUAUGUACCGAAUCGGUUUUUUUGGGUUUUUUUGGGGUUUUUUUGGAAAGUAUUAUGUUACGCCGUUCGGAUCUG", "log2 enrichment": -0.301}
{"Strand": "CACAGACAACACGCACCCACACAGACACAGAGGGAAGGGGUUGGGAUGGGGACAGGGUGCACAGCAGGGCGGGGUAGGAAACCAGCCCCU", "log2 enrichment": -0.164}
{"Strand": "AGUCCUGUGCUACACAUCGUAUGUACCGAAUCGGGCCCCGGGGCCCCGGGGCCCCGGAAAGUAUUAUGUUACGCCGUUCGGAUCUGCACU", "log2 enrichment": -0.681}
{"data": "Block 2", "target": "Centromere-binding protein 1, full length, His-tagged (CBF1, Saccharomyces cerevisiae, UniProt P17106, residues 1-351)", "technique": "competition protein-binding microarray", "form": "double-stranded DNA, one strand shown", "medium": "in vitro", "tested at": "2 µM", "notes": "whole 60-bp probe, lowest competitor level", "together with": "Pho4 competitor, 0.05 µM", "direction": "higher = stronger binding", "shared flanks, not repeated": "… GTCTTGATTCGCTTGACGCTGCTG", "UniProt P17106, sequence (whole entry, looked up)": "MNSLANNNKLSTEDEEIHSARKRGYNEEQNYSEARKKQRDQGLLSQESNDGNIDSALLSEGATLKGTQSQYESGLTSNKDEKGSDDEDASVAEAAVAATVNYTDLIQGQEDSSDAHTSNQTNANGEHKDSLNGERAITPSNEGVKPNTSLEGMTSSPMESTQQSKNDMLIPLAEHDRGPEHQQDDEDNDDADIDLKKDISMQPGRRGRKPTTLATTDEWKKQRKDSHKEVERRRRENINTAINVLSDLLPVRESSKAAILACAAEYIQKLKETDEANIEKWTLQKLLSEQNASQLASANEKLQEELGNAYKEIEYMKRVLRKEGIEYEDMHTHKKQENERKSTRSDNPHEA"}
{"Strand": "TCGTGCGATGTTTTCATCGAATCCTCCAAGCAATGA", "fluorescence intensity [a.u.]": 79}
{"Strand": "CGTCCTAGTGATTGTCACCTTACTTCCATGAGGAAG", "fluorescence intensity [a.u.]": 91.9}
{"Strand": "TCACTGAACTTCTGTGACCTGCGAGGACCAAGATCA", "fluorescence intensity [a.u.]": 72.4}
{"Strand": "TACGACCAGATGAATCACATGTGTGGATGTTAACAA", "fluorescence intensity [a.u.]": 553}
{"Strand": "GAGCGACTCAGGACGCGCGTGTGTTATTTTGGCCCC", "fluorescence intensity [a.u.]": 85}
{"Strand": "TAGATTCCTAATTGTCTTGTGACGCTTAAAGCAGGG", "fluorescence intensity [a.u.]": 126}
{"Strand": "AAAGCGGTAATTTGTAGCGTGGGTGCAGATATCTAT", "fluorescence intensity [a.u.]": 85.8}
{"Strand": "AAGATCTAGGCCCATCACGCAGGCAGTTACTGAGAA", "fluorescence intensity [a.u.]": 84.1}
{"Strand": "AAGGGAAAAAGCTTTGGCGTGCTTTACGATATGGCT", "fluorescence intensity [a.u.]": 62.8}
{"Strand": "GGAAGGTGGCACCATCACCTGGGGAAATTCTGTCAA", "fluorescence intensity [a.u.]": 61.8}
{"Strand": "CGTCCTAGTGATTGTCACCTAACTTCCATGAGGAAG", "fluorescence intensity [a.u.]": 76.9}
{"Strand": "CTTTCCGTTTGCGGACTCGTGCAAAAGCTTACCTTC", "fluorescence intensity [a.u.]": 105}
{"Strand": "CATACCCAACCTTGAGAAGTGGGTGAAGATATTTGT", "fluorescence intensity [a.u.]": 76}
{"Strand": "GGTTGCGAGAGAAGAGGCGTGTCGGAAAAAAAAACG", "fluorescence intensity [a.u.]": 83.2}
{"Strand": "CGTCCTAGCGATTGACGGGTGGGTGCCATGAGGAAG", "fluorescence intensity [a.u.]": 61.8}
{"Strand": "GTCTTGTCTCATTGCAACGTGGGTGTCCCCACTTCA", "fluorescence intensity [a.u.]": 91.7}
{"Strand": "AGACATGTCGAATCGCACGCTGTTGCATTAAAAGTA", "fluorescence intensity [a.u.]": 75.4}
{"Strand": "CATACCCAACCTTGCGGCGTGGGTGAAGATATTTGT", "fluorescence intensity [a.u.]": 65}
{"data": "Block 3", "target": "ABI1, truncated, D143A, DHFR fusion (Arabidopsis thaliana)", "technique": "DHFR PCA, deep sequencing", "medium": "yeast", "notes": "methotrexate growth selection, single substitutions", "together with": "(+)-ABA 4.8 µM", "relative to": "wild-type fitted maximum", "direction": "higher = stronger binding", "starting sequence": "PYL1, truncated, DHFR fusion (Arabidopsis thaliana); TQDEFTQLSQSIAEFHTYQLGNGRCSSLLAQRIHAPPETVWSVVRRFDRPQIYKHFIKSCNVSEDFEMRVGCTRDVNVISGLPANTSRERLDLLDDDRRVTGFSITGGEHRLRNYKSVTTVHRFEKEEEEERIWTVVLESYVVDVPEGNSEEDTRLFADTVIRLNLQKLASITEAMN"}
{"Substitution": "V145G", "relative binding score [%]": 5.81}
{"Substitution": "R163T", "relative binding score [%]": 49.1}
{"Substitution": "K168F", "relative binding score [%]": -1.42}
{"Substitution": "G107T", "relative binding score [%]": 1.46}
{"Substitution": "R32N", "relative binding score [%]": 41.1}
{"Substitution": "F56E", "relative binding score [%]": -6.24}
{"Substitution": "T101L", "relative binding score [%]": 74}
{"Substitution": "T173H", "relative binding score [%]": -6.12}
{"Substitution": "G148Q", "relative binding score [%]": 25.1}
{"Substitution": "T86D", "relative binding score [%]": 58.8}
{"Substitution": "A158C", "relative binding score [%]": 108}
{"Substitution": "A170V", "relative binding score [%]": -3.77}
{"Substitution": "A175Y", "relative binding score [%]": 51.5}
{"Substitution": "L82A", "relative binding score [%]": 14}
{"data": "Block 4", "target": "CCNB1, cyclin fold, Cln2 fusion (human)", "technique": "yeast growth competition, sequencing", "medium": "yeast", "notes": "strong parent motif", "relative to": "not given", "direction": "higher = stronger binding", "starting sequence": "CUX1 docking peptide (human); SRIRRELFIEEIQ"}
{"Substitution": "S1A", "normalised enrichment score": 1.61}
{"Substitution": "F8L", "normalised enrichment score": -0.148}
{"Substitution": "L7A", "normalised enrichment score": -0.0152}
{"Substitution": "R4A", "normalised enrichment score": 1.34}
{"Substitution": "I3A", "normalised enrichment score": 0.346}
{"Substitution": "E11A", "normalised enrichment score": 0.945}
{"Substitution": "I12A", "normalised enrichment score": 0.749}
{"data": "Mixed results"}
{"Molecule": "PhoQ, residues 284 288 289 292 302 303 STVVAA", "target": "PhoP, residues 12 14 15 18 19 LHHVQ (Escherichia coli, UniProt P23836)", "test": "Sort-seq, item: YFP reporter", "system": "E. coli", "conditions": "PhoQ-PhoP variant library, together with: 10 µM Mg2+", "how to read": "relative to: high Mg2+ state, higher = stronger signaling", "quantity": "fold induction", "result": 4.25}
